Measured values gathered from unrelated publications.
“And” joins repeats or separate records; there may be more than shown. ± gives the spread as reported. Converted amounts (≈) assume the structure as drawn.

C[C@](N)(Cc1ccc(O)c(O)c1)C(=O)O has a solubility of 367 µg/mL (≈ 1740 µM) (supercritical carbon dioxide; 5 h, 343 K, 27 MPa, density 760.3 kg/m3).
N=C(N)c1ccc(CNC(=O)[C@@H]2CCN2C(=O)[C@H](NCC(=O)O)C2CCCCC2)cc1 has a plasma concentration of 6.3 ± 0.3 ng/mL (Wistar rats male, plasma; intravenous, 0.003 mg/kg, 15 min, 10 min after TF).
With `des-acyl ghrelin (human)` the brain/serum ratio was 6.89 µL/g (mouse, Ghsr knockout, thalamus; intravenous, 10 min).
For NCCCn1c2c(c3ccc(N)cc3c1=O)C(=O)c1ccccc1-2, the tissue concentration was 3720 ± 70 ng/g (Sprague-Dawley rat, female, liver; oral gavage, 40 mg/kg/day, 3 h after last dose, dosed 3 days).
With Cn1cc(C[C@H](N)C(=O)O)c2ccccc21 the body weight was 14.1 ± 1.1 kg (domestic pig; sc, 1 g daily for five days).
CC[C@H](C)[C@H](NC(=O)[C@H](CCSC)NC(=O)[C@H](CCCNC(=N)N)NC(=O)[C@H](Cc1ccc(O)cc1)NC(=O)[C@H](C)NC(=O)[C@H](CCC(N)=O)NC(=O)CNC(=O)[C@H](CCCCN)NC(=O)[C@@H](N)CO)C(=O)O — result for “brain concentration increase”: 1470% (male ddY mouse, whole brain; intranasal, 1 mg, 30 min; relative to: intraperitoneal).
For C=CC(N)CCC(=O)O (centres unmarked), the clearance was 10.1 ± 0.167 mL/min/kg (male Sprague-Dawley rat, plasma; oral, 10 mg/kg, formulation 9, added: low-fat infant formula 1500 mg/kg).
The CL/F of CC(C)=CCC[C@](C)(O[C@@H]1O[C@H](CO[C@@H]2O[C@H](CO)[C@@H](O)[C@H](O)[C@H]2O)[C@@H](O)[C@H](O)[C@H]1O)[C@H]1CC[C@]2(C)[C@@H]1[C@H](O)C[C@@H]1[C@@]3(C)CC[C@H](O[C@@H]4O[C@H](CO)[C@@H](O)[C@H](O)[C@H]4O[C@@H]4O[C@H](CO)[C@@H](O)[C@H](O)[C@H]4O)C(C)(C)[C@@H]3CC[C@]12C is reported as 2.67 ± 0.333 mL/min/kg (Sprague Dawley rat, male, plasma; oral, 86 mg/kg, in frozen ginseng extract).
CNC(=O)c1ccc(-c2cnc3ncc(Cc4ccc5ncccc5c4)n3n2)cc1F: “half-life (geometric mean)” 6.08 h (human, severe hepatic impairment (Child-Pugh C), plasma; oral, 200 mg single dose).
CON gave a blood concentration of 10.4 ng/mL (human, whole blood on ice; 60 min before centrifugation).
Under “AUC(0-t) at steady state”, CC(C)(CC(=O)N1CCCC1)NCC(=O)N1C[C@@H](F)C[C@H]1C#N is recorded as 1480 ng·h/mL (Chinese type 2 diabetes patients, plasma; oral, 100 mg once daily, multiple doses).
For CS/C(S)=N/CCCC[S+](C)[O-] (racemic), “mRNA fold change” read 0.413 (RT-PCR, item: Cyp19a1; rat, liver; oral gavage, 200 mg/kg, dosed for four days; relative to: vehicle).
With CCc1c(CO)c(CO)c2n1Cc1c(c3ccccc3n1C)C2 the Vss was 1.46 ± 0.29 L/kg (male Sprague-Dawley rat, whole blood; intravenous, 10 mg/kg).
Cc1ccc(-c2cc(C(F)(F)F)nn2-c2ccc(S(N)(=O)=O)cc2)cc1: “plasma protein binding” 98.22 ± 0.3% (equilibrium dialysis; dogs, albumin H1/H1 and H2/H2, plasma; 4 µM, 4 h, 37 °C).
For O=C1NC(=O)C(c2ccccc2)(c2ccccc2)N1, the distribution volume was 4.28 ± 0.07 mL/g brain (rat, brain slices; 3.64 µM, 90 min).
CC(=O)N[C@@H](CCCNC(=N)N)C(=O)N[C@@H](C)C(=O)N[C@@H](CC(=O)O)C(=O)N[C@@H](C)C(=O)N[C@@H](CCCNC(=N)N)C(=O)N[C@@H](C)C(=O)N[C@@H](CC(=O)O)C(=O)N[C@@H](C)C(=O)N[C@@H](CCCNC(=N)N)C(=O)N[C@@H](C)C(=O)N[C@@H](CC(=O)O)C(=O)N[C@@H](C)C(=O)N[C@@H](CCCNC(=N)N)C(=O)N[C@@H](C)C(=O)N[C@@H](CC(=O)O)C(=O)N[C@@H](C)C(N)=O has a viscosity of 955 ± 46.7 Pa·s (rotational rheometry; 1% w/v aqueous solution; shear rate range 1-1000 s^-1).
CC(C)[C@H](NC(=O)[C@@H]1CCCN1C(=O)[C@H](CCCNC(=N)N)NC(=O)[C@H](CS)NC(=O)[C@H](Cc1c[nH]c2ccccc12)NC(=O)[C@H](CCCNC(=N)N)NC(=O)[C@@H](Cc1ccccc1)NC(=O)[C@H](Cc1c[nH]cn1)NC(=O)[C@H](CCC(=O)O)NC(=O)[C@H](CS)NC(=O)[C@H](CS)NC(=O)[C@H](CCCCN)NC(=O)[C@@H]1CC(=O)N[C@@H](CCCNC(=N)N)C(=O)N[C@@H](C(C)C)C(=O)N[C@@H](CC(=O)O)C(=O)N[C@H](Cc2ccc(O)cc2)C(=O)N1)C(N)=O [technetium-99m labelled] has a tissue uptake of 0.03 ± 0.02 %ID/g (C57 mouse, female, B16/F1 melanoma, muscle; intravenous, 2 h, added: NDP-MSH 10 µg co-injected).
Under “decomposition rate fold increase”, CC(Cl)(Cl)C(=O)OC1(N=O)CCOCC1 is recorded as 5 fold (PBS, 3% DMF; pH 7.4, added: porcine liver esterase; relative to: with esterase over buffer).
Cn1c(-c2ccc(C(N)=O)cc2F)nnc1C(C)(C)Oc1c(F)cc(Cl)cc1F has an AUC(0-inf) range of 1710 to 4620 ng·h/mL (young non-Japanese subjects, plasma; oral, 20 mg single dose, day 1).
CN1CC[C@@H](NC(=O)Nc2ccc(C#N)cc2)C[C@@H]1c1nc2ccccc2[nH]1 has an AUC(0-inf), unbound of 983 ng·h/mL (severe hepatic impairment, plasma; oral, 100 mg single dose, fasted, geometric mean).
Cc1cc(Nc2ncc(Cl)c(Nc3ccccc3S(=O)(=O)C(C)C)n2)c(OC(C)C)cc1C1CCNCC1 has a Css,max of 1830 nM and 2230 nM (item: total drug; human, plasma; oral, 750 mg/day).
With CCCCOCCOc1ccc(-c2ccc3c(c2)/C=C(/C(=O)Nc2ccc([S@@+]([O-])Cc4cncn4CCC)cc2)CCCN3CC(C)C)cc1 the effective half-life was 21.2 h (human, controls matched to mild impairment; oral, 150 mg).
For `acyl ghrelin (human)`, the brain/serum ratio was 6.83 µL/g (mouse, wild type, hypothalamus; intravenous, 10 min).
CC[C@H](C)[C@@H]1NC(=O)[C@H](Cc2ccc(O)cc2)NC(=O)[C@@H](N)CSSC[C@@H](C(=O)N2CCC[C@H]2C(=O)N[C@@H](CC(C)C)C(=O)NCC(N)=O)NC(=O)[C@H](CC(N)=O)NC(=O)[C@H](CCC(N)=O)NC1=O has an AUC(0-t) of 173 ± 114 pg·30 min/sample (microdialysis, radioimmunoassay; C57BL/6J male mice, wild type, hippocampus extracellular fluid; intranasal, 12 µg, total area from zero).
Oc1ccc(-c2nc(-c3ccc(Oc4ccccc4)cc3)no2)cc1 has an initial half-life of 2.4 min (ICR mice, plasma; intravenous, 50 mg/kg).
CC(C)C[C@H](NC(=O)[C@H](CCCNC(=N)N)NC(=O)[C@H](CC(N)=O)NC(=O)[C@H](CC(=O)O)NC(=O)[C@H](CCCNC(=N)N)NC(=O)CNC(=O)CNC(=O)CNC(=S)Nc1ccc(C[C@H]2CN(CC(=O)O)CCN(CC(=O)O)CCN2CC(=O)O)cc1)C(=O)N[C@@H](CC(N)=O)C(=O)N[C@H](C(=O)NCC(=O)NCC(=O)N[C@H](C(=O)N[C@@H](Cc1ccc(O)cc1)C(=O)N[C@@H](Cc1ccccc1)C(=O)N[C@@H](CC(C)C)C(=O)N[C@H](C(=O)N[C@H](C(=O)N[C@@H](CCCNC(=N)N)C(=O)N[C@@H](CCC(N)=O)C(=O)O)[C@@H](C)O)[C@@H](C)O)[C@@H](C)O)C(C)C [fluorine-18 labelled] — result for “intact parent radiotracer”: 93.6 ± 1.38% (radio-HPLC; mouse (HepG2 tumour-bearing), blood; intravenous, 5.55 MBq, 1 h).
COc1cc(CCC(C)=O)ccc1O has an AUC(0-t) of 2.2 ± 0.21 nmol·min/g (normal-weight male C57BL/6J mice, brain; oral, 200 mg/kg, 0 to 12 h, low-fat diet).
For CC[C@@H]1CN(C(=O)NCC(F)(F)F)C[C@@H]1c1cnc2cnc3[nH]ccc3n12, the renal clearance was 57 mL/min (human, mild renal impairment, urine and plasma; oral, 15 mg single dose, extended release, fasted, arithmetic mean).
With CCCCC1=NC2(CCCC2)C(=O)N1Cc1ccc(-c2ccccc2S(=O)(=O)Nc2noc(C)c2C)c(COCC)c1 the steady-state clearance was 120 mL/min (human female reference subject, plasma; oral, 800 mg, population PK model).
For CNCCC(Oc1ccc(C(F)(F)F)cc1)c1ccccc1 (centres unmarked), the fraction unbound was 0.08 (rapid equilibrium dialysis; pooled human plasma; 4 h, added: cassette with gefitinib, losartan).
CC(C)OC(=O)[C@H](CCC(=O)C=[N+]=[N-])NC(=O)O[C@H](C)OC(=O)C(C)(C)C gave a remaining compound of 86 ± 5% (swine plasma; 10 µM, 60 min, 37 °C).
O=C1N=C(N2CCOCC2)CN1c1ccc(Cl)cc1 gave a terminal half-life of 1.7 h (beagle dog, male; oral, 30 mg/kg, tablets).
For CS(=O)(=O)n1cc2c(n1)CN([C@H]1CO[C@H](c3cc(F)ccc3F)[C@@H](N)C1)C2, the plasma concentration was 7.55 nM (healthy Japanese men, fasted, plasma; oral, 5 mg single dose, 168 h).
C[C@]12CC[C@@H]3c4ccc(O)cc4CC[C@H]3[C@@H]1C[C@@H](O)[C@@H]2O: “median serum concentration” 0 ng/mL (GC-MS; breast cancer women on NSAI, serum; vaginal, 0.03 mg, 24 h, day 0).
For CCN1CC(=O)N[C@@H](CC(C)C)C(=O)N2CCC[C@@H]2C(=O)N(C)[C@@H](CC(C)C)C(=O)N[C@@H](C)C(=O)N(CC2CCOCC2)CC(=O)N[C@@H](Cc2ccccc2)C(=O)N2CCC[C@@H]2C(=O)N(C)[C@@H](CC(C)C)C(=O)N[C@@H](C)C1=O, the oral bioavailability was 2% (mouse; added: 1-aminobenzotriazole pretreatment).
O=C(c1cc(Cc2n[nH]c(=O)c3ccccc23)ccc1F)N1CCN(C(=O)C2CC2)CC1 has an AUC(0-10 h) of 9400 ± 3000 ng·h/mL (cancer patients; oral, 100 mg twice daily, day 2, added: pegylated liposomal doxorubicin).
Under “geometric mean ratio AUCinf”, [2H]C([2H])([2H])Oc1cc2c(cc1OC([2H])([2H])[2H])C1CC(=O)C(CC(C)C)CN1CC2 (centres unmarked) is recorded as 105% (item: β-HTBZ; human, fasted; oral, 15 mg single dose; relative to: tetrabenazine 25 mg fasted).
CCCOc1ccc([C@H]2CNC(=O)N2c2ccc3[nH]cnc3c2)cc1 — result for “apparent terminal half-life”: 2.28 h (human volunteers fasted, plasma; oral solution, 30 mg single dose, day 1, geometric mean).
O=C(O)C[C@H](O)C[C@H](O)/C=C/c1c(C2CC2)nc2ccccc2c1-c1ccc(F)cc1 — result for “volume of distribution”: 175 L (healthy Chinese female volunteers, plasma; oral, 2 mg once daily, multiple dose).
For NCCCS(=O)(=O)O, “terminal elimination rate constant” read 5.13e-05 ± 2.83e-05 s⁻¹ (human, plasma; oral, 100 mg loose-filled capsule, single dose).
CCCC[C@@H]1NC(=O)[C@@H](NC(=O)[C@H](CCC(=O)O)NC(=O)CNC(=O)CN2CCN(CC(=O)O)CCN(CC(=O)O)CCN(CC(=O)O)CC2)CCCCNC(=O)C[C@@H](C(N)=O)NC(=O)[C@H](C(C)C)NC(=O)[C@@H]2CCCN2C(=O)[C@H](CCCNC(=N)N)NC(=O)CNC(=O)[C@H](Cc2c[nH]c3ccccc23)NC(=O)[C@H](CCCNC(=N)N)NC(=O)[C@@H](Cc2ccccc2)NC(=O)[C@H](Cc2c[nH]cn2)NC(=O)[C@H](CCC(=O)O)NC1=O [indium-111 labelled] gave a tissue uptake of 0.42 ± 0.07 %ID/g (C57 mice, B16/F10 lung metastatic melanoma, liver; intravenous, 0.037 MBq, 2 h).
CNCCCC1(c2ccc(F)cc2)OCc2cc(C#N)ccc21 (centres unmarked): “transplacental transfer index” 0.2 ± 0.96 (mouse, perfused E18 placenta ex vivo; 500 ng/mL maternal side, 120 min, pH 7.3; relative to: antipyrine).
C[C@@H]1CCC[C@H](n2cnc(-c3cc(Cl)ccc3-n3cc(Cl)nn3)cc2=O)c2cc(ccn2)-c2c(cnn2C(F)F)NC1=O has an AUC(0-inf) of 4100 ng·h/mL (human, plasma; oral, 60 mg, single dose, fasted, healthy volunteers).
With C=CC(=O)Nc1cc(Nc2ncc(C(=O)OC(C)C)c(-c3cn(C)c4ccccc34)n2)c(OC)cc1N(C)CCN(C)C the terminal half-life was 18.3 h (human, fasted; oral, 120 mg single dose, geometric mean).
COc1cc(C(=O)N2CCC3(CC2)CC(=O)c2c(cnn2C(C)C)C3)cc(-c2ccc(C(=O)O)cc2)n1: “liver enzyme elevation” 2.8 × ULN (item: ALT; human; 15 mg twice daily, 7 days).
C=C(C)[C@@H]1CC[C@]2(NCCN3CCS(=O)(=O)CC3)CC[C@]3(C)[C@H](CC[C@@H]4[C@@]5(C)CC=C(C6=CC[C@@](CF)(C(=O)O)CC6)C(C)(C)[C@@H]5CC[C@]43C)[C@@H]12 gave a terminal half-life of 22.4 h (human; oral, 320 mg once daily, day 14, multiple ascending dose).
For Oc1ccc(/C=C/c2ccc3ccccc3c2)cc1O, “linear absorbance range” read no more than 10 µM (water; aggregation above range).
The Tmax of CCCC[C@H](NC(C)=O)C(=O)N[C@H]1CCC(=O)NC[C@@H](C(=O)N[C@@H](Cc2c[nH]c3ccccc23)C(N)=O)NC(=O)[C@H](CCCNC(=N)N)NC(=O)[C@@H](Cc2ccccc2)NC(=O)[C@H](Cc2c[nH]cn2)NC1=O is reported as 1 h (beagle dog, female, plasma; subcutaneous, 8.0 mg/kg daily, day 1).
For CC1=C2C[C@H]3[C@@H](CC[C@@H]4C[C@H](NS(C)(=O)=O)CC[C@@]43C)[C@@H]2CC[C@@]2(C1)O[C@@H]1C[C@H](C)CN[C@H]1[C@H]2C, the AUC(0-24) was 6150 ng·h/mL (patients, plasma; oral, 130 mg daily, day 22, cycle 1).
For CCOc1c([C@H](C)n2nc(C)c3c(N)ncnc32)cc(Cl)c(F)c1[C@@H]1CNC(=O)C1, “terminal half-life geometric mean” read 12.8 h (healthy fasted humans, plasma; oral, 10 mg).
